Results collected from several papers.
Parts stem from different laboratories: compare values within a part only.

Set 1
Target: RING finger protein unkempt homolog, zinc fingers 1-6, GST-SBP tag (UNK, Homo sapiens, UniProt Q9C0B0, residues 30-357)
Technique: RNA Bind-n-Seq
Form: RNA
Matrix: in vitro
Concentration: not given
Notes: RNA with constant flanks, human-mouse chimeric sites, ends assumed
Baseline: input RNA pool
Direction: higher = stronger binding
Residues (chain): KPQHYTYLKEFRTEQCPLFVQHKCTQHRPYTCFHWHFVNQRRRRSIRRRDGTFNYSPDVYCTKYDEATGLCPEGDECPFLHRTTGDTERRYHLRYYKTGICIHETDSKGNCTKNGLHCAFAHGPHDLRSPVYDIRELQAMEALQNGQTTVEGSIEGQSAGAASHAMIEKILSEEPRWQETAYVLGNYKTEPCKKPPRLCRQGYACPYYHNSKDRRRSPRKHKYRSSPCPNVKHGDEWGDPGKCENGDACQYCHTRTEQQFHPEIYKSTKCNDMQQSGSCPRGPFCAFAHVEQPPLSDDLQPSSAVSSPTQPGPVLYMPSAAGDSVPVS
Sequence	bound/input enrichment
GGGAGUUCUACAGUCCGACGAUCGGCCUGGACCUUCCUGGGCUAGUGCAAAAUAGCGGCAGUGGAGGCUCGAGAGGAAAGUUUGUUAGUGGAGGCAGUGGUAGAGGCCGUCAUGUACGGUCCUUUACUCGAUAGAUGUGUUCUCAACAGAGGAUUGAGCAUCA	0.47 ratio
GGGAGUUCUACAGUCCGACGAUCGAGCCCAGCCGGCAGUUUGUAAAGGACUCCAUUCGGCUGGUUAAAAGAUGCACCAAACCUGAUAGAAAAGAAUUCCAGAAGAUUGCCAUGGCUACAGCUAUAGGAUUUGCUAUCAUGGGACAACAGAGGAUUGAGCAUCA	0.235 ratio
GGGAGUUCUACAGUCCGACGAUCGAGUCGAGCAAACUUGAAACUACAGAAUAUCUUGCAGAGCUUCGGUGCACUUGCUUGGCGAUAGCAUUGGGGUUUUAUAGGUUCUGGAAGGAGAACUGACGAUGAUGCUGCCGCUGCUGCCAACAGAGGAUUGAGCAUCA	0.0945 ratio
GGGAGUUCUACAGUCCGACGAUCAACAGAUUUCUCAAGCACAUUCCAAGCGAGAAUGCUGGGGUGAUCAUUGUUGCCCAUGUGCCUUCUGACUGAGCUUUAAUGCUGUUCCAUGUUACAUCUUUCCUUCAUUGCAUAUUUGUUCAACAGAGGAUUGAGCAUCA	0.184 ratio
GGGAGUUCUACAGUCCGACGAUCUGUGCAUAUGAUGCUUGAGAUGGUUUUUGCAGAUGCAGAAAUCGCUGCAAGGUAAUCCUAAUAGAGAAAAGUGGUAUUUUAAACCUUUGAAAUAAAUGGAUGUAACUGUACCUUGGUACACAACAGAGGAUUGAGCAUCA	1.01 ratio
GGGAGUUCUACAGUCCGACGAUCGAUAGGAAAAGCUUGUUGGAGACCCGCUUGCAUGUCACUGGUAGAGACCUGAGGUGUCAAAUAGCUGAAACUUUCGGAUUUCAAGAAAAUUACAUCAAGAUCGUAAUAAAUAAGAAACAGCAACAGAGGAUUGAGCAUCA	0.524 ratio
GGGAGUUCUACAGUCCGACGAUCCAGUCCCCGUGUCCCAGUGCAGGACGAGAACAUGGACAACUCAAAGCGGACCCUCUAUUGUAGUUCUUGAUUCUCGAAAUGUGCUAUUGUUUUUAAACUUUUUUUUUUUUUUUUUAAAGACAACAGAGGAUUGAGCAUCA	0.455 ratio
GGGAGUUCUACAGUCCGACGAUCAUAUUUCAUAUUGCAAAGAUGUUUACAAGUAUUUUAAUUUAAGUUCAGUGAACUUUUUUGUAGCUGGGUUAAAUCUUUUUAUUUUUAUAUGGCCUUAAUGGCAAAGACACUGUAUUAUUUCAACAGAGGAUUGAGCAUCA	1.68 ratio

Set 2
Target: RNA binding protein fox-1 homolog 2, RRM domain, GST-SBP tag (RBFOX2, Homo sapiens, UniProt O43251-10, residues 100-194)
Technique: RNA Bind-n-Seq
Form: RNA
Matrix: in vitro
Concentration: 365 nM
Notes: natural RNA segment, single round, ends assumed
Baseline: no-protein control
Direction: higher = stronger binding
Residues (chain): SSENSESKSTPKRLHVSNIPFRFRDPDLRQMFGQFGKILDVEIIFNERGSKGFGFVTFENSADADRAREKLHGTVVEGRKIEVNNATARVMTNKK
Sequence	RBNS enrichment (R)
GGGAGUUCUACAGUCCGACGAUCUUUUUUUCCUCCUUCAAUCUCAGGCUUUUCUCCAUCUUUUAAGCAGCCUCUGUAACUCCCUUUUGUCCAUAGGUGUUGCGUGCCUCUCAUCUGUGGGGAAGUAUUAUUUAUGGAAUUCUCGGGUGCCAA	1.98
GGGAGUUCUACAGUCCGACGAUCCAAUCUCUUCAUAAUUUUGUUCUGUAAAAGAUGAACCUUUCCGAGUGAUGCAUUCAAACUGUCUAGCAAUAGAUCUUUUAAAACGAUGUAAAACCAUUCAGGGUAAUUUUUGGAAUUCUCGGGUGCCAA	0.365
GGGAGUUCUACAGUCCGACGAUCCAGAGUACCCUUGAGAAUUGAAAUGUAUUUCGAUUAGUUGUCUUUAAUUAGCUAGCUAGAGUCAGUUGAUAUCUCUACCAAGCUGAAGCCUAGUACCUACGAAGCUAUUUUGGAAUUCUCGGGUGCCAA	0.349
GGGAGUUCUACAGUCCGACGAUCCCAGUAAGCCCUUCUGGGUUUGAGUGUGUUCCCAUGUAGGAGGUAAAACCAAUUCUGGAAGCAUCUAAGCUUCCAUAAAUAACUUUAAUUCUUAGCAUAAUGACGGCCUUUGGAAUUCUCGGGUGCCAA	0.251
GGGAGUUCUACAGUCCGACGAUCUAAGAAAAGAAAAAAGAAAGGAAAGGGGAUUAAUUUAGUGAAAGAUGAUUUUGCUCCUAGUUUUGAUUUCUGCCAGGAUUGAAUUAUUUCAAAAUCUCCUGUGUUUUUUAUGGAAUUCUCGGGUGCCAA	1.25
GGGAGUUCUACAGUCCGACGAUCCUUUAUGCCUGGUGGCACAUUAUUCACCCGGUAACCUCCAGCUGCUUUGAUCCUGUUUCAGUCAAAGUCAGCUUCAGCCACCCCCUCCAUUCCCUAGCCAGCUCCACCCUUGGAAUUCUCGGGUGCCAA	0.648
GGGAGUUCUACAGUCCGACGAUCCCACUGAUUGAAAUUUUCUUCUUCCAUGGACUAAGUCCAUCUAGGAAGGAAAAAUGAGGAGAAAGAGUGUGGUAUCCUCCUUCUAAGACAGUGACCGAUUUCUCUGGGUUUGGAAUUCUCGGGUGCCAA	0.487
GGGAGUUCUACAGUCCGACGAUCGCCCAACCCACCUUAGCAUGUAUCACUCUGUGGAGAAUAAAGCACCCUAUGUACACAGCCAAAAGCCGCACUGCCUGCGCCCCUGGAACCUGGGUCCGGCCUUCCUCAGCUGGAAUUCUCGGGUGCCAA	15.1

Set 3
Target: Histone acetyltransferase KAT6A, both winged helices, GST fusion (KAT6A, Homo sapiens, UniProt Q92794, residues 1-181)
Technique: protein binding microarray
Form: double-stranded DNA, one strand shown
Matrix: in vitro
Concentration: not given
Notes: 8-mer, flanks averaged, mean of 2 arrays, mostly near background
Baseline: not given
Direction: higher = stronger binding
Residues (chain): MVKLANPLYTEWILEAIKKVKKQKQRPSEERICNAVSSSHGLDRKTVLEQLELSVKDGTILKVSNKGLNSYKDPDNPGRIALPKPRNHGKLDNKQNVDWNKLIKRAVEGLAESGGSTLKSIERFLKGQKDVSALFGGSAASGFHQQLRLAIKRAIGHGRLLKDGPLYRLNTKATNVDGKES
Sequence	E-score
GCTGTCTA	-0.00707
CGGAAGGC	0.147
AATGGAGC	-0.0928
AGTGAGCA	-0.128
ACGGCTGA	0.19
GCTAATGA	-0.0922
CACACCAA	0.0849
GTATCGAC	0.0871
AAATAATT	0.022
CCCGTTCA	0.0705
AACAGGTC	-0.0982
ACAACCGC	0.208
AATGTCGG	0.188
GGACGCCA	0.076
AAATAGTT	0.0122
CAAGGACG	0.0665
ACTTGCTG	-0.147
CAAGGCTC	-0.133
CTAAAATC	-0.193
CTTCCTAA	-0.224
TCTACCCA	-0.105
CTTTTACA	-0.00615
CCTTCTAC	-0.117
CATGTAGA	-0.147
GGGCTGAC	0.0253

Set 4
Target: Interferon regulatory factor 7, full length, phosphomimetic (IRF7, Homo sapiens, UniProt Q92985, residues 1-503, S101K/S471D/S472D/S475D/S476D/S477D/S483D/S484D/S487D)
Technique: protein-binding microarray
Form: double-stranded DNA, one strand shown
Matrix: in vitro
Concentration: 250 nM
Notes: 60-bp whole probe
With: salmon DNA 0.4 mg/ml
Baseline: random background probes
Direction: higher = stronger binding
Shared flanks, not repeated: GCCTAGCAC … GTCTTGATTCGCTTGACGCTGCTG
Construct (chain): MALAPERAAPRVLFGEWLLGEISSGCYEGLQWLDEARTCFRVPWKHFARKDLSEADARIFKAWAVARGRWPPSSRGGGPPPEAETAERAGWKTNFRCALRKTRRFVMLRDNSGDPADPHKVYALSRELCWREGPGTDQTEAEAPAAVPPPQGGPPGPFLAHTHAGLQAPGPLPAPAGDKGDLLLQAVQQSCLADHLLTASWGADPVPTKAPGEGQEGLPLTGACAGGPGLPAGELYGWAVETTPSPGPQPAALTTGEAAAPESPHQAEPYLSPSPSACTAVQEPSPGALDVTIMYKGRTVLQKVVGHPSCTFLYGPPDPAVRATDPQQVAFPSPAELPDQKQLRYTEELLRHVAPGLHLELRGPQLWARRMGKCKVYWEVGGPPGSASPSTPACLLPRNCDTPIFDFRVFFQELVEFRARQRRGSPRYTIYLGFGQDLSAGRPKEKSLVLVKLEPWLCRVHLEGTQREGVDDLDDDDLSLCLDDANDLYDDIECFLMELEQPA
Sequence	log fluorescence [z-score]
TTAGATCTCAGTCTCGGTTAGTGCTAG	1.66
GACGATTTCGCGTTTCGAGACGTGCTA	2.38
TTAGATTGCAGTTCCGATTAGTGCTAG	0.502
TCAGGAGTGTTTCTCAGACTGTGCTAG	-0.642
ATAGGTATCCTTTTCCTTTAGTGCTAG	1.6
TTAGGTTTCCTTCTCATTTAGTGCTAG	2.21
TTGAAAAAATATTTATTTCAGTGCTAG	-0.126
TTAGGACTGGACGATCGGTTAGTGCTA	-0.62
GACCGACTGGGGTTTCGGGACGTGCTA	1.42
GACGGTATCCGTCTCCTGACGTGCTAG	-0.598
GACGGACTGCTTCACCTGACGTGCTAG	-0.315
TCAAGTTTCTCTTTCCTACTGTGCTAG	7.16
TTAGGTATCAGTATCGGTTAGTGCTAG	1.29
TTAGAACTGGGGTTGCGATTAGTGCTA	-0.277
TTAGGTATCGGTTTTGGTTAGTGCTAG	4.92
CCCACTTTCAGTTCTCCCTTGTGCTAG	2.09
ATAGGTATCGGTATCGGTTAGTGCTAG	2.88
TTAGGAATCCTTTTCCTTTAGTGCTAG	1.2
GTCAGCGGTGGTGTTCGGTGGTGCTAG	-1.07

For quick reference, copied from above (set 3):
Sequence	E-score
AGTGAGCA	-0.128
ACGGCTGA	0.19
GCTAATGA	-0.0922
CACACCAA	0.0849
GTATCGAC	0.0871
AAATAATT	0.022
CCCGTTCA	0.0705
AACAGGTC	-0.0982
